Measured values collected from several papers.
Lines come from different studies, so protocols differ. “And” joins repeats or separate records; there may be more than shown. ± gives the spread as reported.
BCHE: Cholinesterase (BCHE, Homo sapiens, UniProt P06276)
UniProt P06276, sequence (whole entry, looked up): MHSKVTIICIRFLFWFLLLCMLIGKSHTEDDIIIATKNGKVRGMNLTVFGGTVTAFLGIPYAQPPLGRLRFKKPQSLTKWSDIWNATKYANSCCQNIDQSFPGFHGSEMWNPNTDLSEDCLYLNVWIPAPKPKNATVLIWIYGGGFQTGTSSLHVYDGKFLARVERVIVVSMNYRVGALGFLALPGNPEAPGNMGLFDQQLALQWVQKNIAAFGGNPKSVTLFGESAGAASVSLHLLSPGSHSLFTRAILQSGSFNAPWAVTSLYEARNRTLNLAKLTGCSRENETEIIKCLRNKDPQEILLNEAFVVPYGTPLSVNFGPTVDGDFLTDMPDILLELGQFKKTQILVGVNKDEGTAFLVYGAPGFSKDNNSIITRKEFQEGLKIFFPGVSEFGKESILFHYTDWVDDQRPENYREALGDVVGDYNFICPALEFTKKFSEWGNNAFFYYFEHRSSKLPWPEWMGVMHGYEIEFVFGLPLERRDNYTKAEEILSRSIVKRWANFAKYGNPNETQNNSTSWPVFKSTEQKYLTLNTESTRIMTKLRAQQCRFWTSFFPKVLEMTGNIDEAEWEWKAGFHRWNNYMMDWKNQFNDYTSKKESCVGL
CPL: CPL (Toxoplasma gondii, UniProt Q6DMN0)
rocR: Cyclic di-GMP phosphodiesterase RocR (rocR, Pseudomonas aeruginosa, UniProt Q9HX69)
Oprd1: Delta-type opioid receptor (Oprd1, Rattus norvegicus, UniProt P33533)
UniProt P33533, sequence (whole entry, looked up): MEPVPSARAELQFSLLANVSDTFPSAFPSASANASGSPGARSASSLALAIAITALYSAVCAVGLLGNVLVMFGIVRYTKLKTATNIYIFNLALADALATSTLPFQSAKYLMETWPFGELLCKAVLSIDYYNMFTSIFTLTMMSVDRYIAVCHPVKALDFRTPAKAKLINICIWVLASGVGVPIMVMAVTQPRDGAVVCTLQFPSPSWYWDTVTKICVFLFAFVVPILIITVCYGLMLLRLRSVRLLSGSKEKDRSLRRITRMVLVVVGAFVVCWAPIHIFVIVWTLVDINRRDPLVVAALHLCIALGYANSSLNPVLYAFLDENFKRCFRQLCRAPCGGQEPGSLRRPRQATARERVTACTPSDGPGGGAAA
Aminopeptidase N: Aminopeptidase N (Neisseria meningitidis, UniProt Q9JYV4)
UniProt P56696, sequence (whole entry, looked up): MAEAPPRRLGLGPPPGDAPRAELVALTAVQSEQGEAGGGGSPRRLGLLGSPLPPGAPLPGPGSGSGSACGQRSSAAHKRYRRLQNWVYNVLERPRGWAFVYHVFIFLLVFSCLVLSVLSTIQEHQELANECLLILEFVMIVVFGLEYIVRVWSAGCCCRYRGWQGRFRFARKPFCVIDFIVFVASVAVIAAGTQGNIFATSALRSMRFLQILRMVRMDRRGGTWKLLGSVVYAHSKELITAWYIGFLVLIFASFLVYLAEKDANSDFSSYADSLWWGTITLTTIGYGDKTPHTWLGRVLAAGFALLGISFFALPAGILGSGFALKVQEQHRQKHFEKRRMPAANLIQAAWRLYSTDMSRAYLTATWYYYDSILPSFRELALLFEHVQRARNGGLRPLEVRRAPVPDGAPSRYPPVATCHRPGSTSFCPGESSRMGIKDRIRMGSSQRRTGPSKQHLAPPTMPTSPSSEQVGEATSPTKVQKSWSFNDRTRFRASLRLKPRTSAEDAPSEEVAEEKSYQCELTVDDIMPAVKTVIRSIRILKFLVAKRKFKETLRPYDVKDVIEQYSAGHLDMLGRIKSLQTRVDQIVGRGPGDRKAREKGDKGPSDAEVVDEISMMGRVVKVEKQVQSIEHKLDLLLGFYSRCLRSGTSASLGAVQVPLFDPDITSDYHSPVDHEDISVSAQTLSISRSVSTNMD
UniProt P17931, sequence (whole entry, unmodified, looked up): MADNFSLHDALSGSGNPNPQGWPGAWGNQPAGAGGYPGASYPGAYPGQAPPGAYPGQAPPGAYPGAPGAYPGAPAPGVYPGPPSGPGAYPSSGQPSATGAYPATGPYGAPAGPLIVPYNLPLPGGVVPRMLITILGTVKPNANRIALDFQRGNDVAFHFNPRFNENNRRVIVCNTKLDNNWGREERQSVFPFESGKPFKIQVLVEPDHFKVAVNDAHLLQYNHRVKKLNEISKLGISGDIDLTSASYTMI
UniProt P81183, sequence (whole entry, unmodified, looked up): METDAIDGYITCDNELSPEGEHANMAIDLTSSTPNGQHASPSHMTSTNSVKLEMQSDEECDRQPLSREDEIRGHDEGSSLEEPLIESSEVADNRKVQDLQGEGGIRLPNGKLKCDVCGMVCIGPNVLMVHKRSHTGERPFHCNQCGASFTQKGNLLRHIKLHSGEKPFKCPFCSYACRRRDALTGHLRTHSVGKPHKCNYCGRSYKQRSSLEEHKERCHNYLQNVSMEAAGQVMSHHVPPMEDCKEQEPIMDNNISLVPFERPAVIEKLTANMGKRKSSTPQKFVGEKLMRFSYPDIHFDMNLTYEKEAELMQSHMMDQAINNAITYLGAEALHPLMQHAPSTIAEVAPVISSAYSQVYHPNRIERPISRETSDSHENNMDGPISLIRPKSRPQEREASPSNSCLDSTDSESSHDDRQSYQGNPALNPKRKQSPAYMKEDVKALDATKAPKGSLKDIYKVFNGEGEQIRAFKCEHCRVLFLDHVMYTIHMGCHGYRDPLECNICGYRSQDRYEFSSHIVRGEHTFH
UniProt Q02936, sequence (whole entry, looked up): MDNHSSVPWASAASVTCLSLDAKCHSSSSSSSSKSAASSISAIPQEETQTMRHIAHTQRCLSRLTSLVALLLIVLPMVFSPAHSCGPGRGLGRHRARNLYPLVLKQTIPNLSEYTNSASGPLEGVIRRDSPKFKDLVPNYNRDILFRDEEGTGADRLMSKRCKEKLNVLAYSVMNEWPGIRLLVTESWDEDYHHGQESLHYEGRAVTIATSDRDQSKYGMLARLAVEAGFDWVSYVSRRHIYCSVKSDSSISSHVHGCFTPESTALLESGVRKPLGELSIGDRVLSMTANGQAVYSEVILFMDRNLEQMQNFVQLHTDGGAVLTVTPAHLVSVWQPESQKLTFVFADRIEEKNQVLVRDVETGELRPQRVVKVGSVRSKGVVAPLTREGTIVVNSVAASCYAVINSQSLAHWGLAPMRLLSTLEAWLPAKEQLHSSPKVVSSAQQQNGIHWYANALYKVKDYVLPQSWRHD
UniProt Q15858, sequence (whole entry, looked up): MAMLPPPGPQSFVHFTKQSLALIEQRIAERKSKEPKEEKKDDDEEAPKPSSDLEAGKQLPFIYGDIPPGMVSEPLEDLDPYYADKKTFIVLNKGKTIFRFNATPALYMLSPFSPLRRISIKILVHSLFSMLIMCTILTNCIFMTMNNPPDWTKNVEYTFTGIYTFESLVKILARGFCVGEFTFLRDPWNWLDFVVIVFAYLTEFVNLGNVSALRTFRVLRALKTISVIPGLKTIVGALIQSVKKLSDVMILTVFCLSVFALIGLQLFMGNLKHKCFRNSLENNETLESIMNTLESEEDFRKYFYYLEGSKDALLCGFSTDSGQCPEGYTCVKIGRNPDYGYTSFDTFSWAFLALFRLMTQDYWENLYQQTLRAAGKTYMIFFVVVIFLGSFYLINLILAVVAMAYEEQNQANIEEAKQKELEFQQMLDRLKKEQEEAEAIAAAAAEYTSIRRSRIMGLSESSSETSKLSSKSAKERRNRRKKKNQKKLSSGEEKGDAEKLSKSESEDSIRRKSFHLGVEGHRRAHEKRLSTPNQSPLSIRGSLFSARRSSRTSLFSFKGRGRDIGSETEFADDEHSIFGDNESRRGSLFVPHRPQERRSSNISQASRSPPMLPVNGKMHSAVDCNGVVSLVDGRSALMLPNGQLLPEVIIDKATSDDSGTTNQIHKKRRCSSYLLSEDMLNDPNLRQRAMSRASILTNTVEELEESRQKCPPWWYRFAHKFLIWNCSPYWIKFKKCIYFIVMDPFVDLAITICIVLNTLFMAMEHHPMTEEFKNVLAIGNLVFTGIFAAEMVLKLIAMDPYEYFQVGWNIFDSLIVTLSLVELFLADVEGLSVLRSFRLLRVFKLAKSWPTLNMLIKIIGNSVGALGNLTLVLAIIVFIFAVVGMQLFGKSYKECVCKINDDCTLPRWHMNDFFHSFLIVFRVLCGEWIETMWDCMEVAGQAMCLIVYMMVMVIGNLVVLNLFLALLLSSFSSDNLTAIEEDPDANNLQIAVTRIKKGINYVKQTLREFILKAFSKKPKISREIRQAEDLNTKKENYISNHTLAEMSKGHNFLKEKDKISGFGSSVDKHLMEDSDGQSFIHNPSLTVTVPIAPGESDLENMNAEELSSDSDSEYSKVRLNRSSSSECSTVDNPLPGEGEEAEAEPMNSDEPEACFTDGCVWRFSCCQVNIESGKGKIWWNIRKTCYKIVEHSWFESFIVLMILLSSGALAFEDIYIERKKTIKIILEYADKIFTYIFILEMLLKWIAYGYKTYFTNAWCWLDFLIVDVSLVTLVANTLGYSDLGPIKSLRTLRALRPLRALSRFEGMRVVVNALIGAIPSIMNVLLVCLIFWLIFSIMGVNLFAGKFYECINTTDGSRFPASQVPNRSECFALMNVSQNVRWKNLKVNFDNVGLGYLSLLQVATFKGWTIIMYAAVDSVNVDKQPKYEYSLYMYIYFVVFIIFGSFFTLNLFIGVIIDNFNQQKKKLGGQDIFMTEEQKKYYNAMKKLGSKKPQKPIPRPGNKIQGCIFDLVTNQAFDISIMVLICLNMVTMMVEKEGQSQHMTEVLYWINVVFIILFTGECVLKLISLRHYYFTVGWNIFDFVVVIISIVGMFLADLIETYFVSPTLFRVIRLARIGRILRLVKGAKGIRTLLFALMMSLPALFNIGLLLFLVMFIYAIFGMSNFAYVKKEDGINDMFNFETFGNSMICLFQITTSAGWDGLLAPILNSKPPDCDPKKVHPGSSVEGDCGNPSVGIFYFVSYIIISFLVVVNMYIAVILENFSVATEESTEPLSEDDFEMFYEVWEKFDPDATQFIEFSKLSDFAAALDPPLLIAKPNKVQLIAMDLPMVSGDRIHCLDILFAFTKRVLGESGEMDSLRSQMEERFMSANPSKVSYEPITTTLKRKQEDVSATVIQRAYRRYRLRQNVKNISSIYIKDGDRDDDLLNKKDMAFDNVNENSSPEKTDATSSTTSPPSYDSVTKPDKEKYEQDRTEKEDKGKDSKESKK

O=C(O)/C=C/c1ccc(O)cc1 — inhibition (BCHE; enzyme activity, inhibitor, Ellman; 500 µg/mL): 72.6%
CC(C)CCN(CCc1ccccc1)c1nc(C#N)nc(N2CCOCC2)n1 — selectivity ratio (CPL; enzyme activity, inhibitor; reference: human over Toxoplasma IC50): 0.8
C=CC1CN2CCC1CC2C(O)c1c(-c2ccc(N=Nc3ccccc3)cc2)cnc2ccc(OC)cc12 (stereo not shown) — photoswitching efficacy (SCN5A (Homo sapiens, UniProt Q14524); sodium current, whole-cell patch clamp; HEK-293T; 10 µM, together with: light 365 versus 480 nm): 33.1 ± 4.3%
CC[C@H](C)[C@H](NC(=O)[C@H](CCCCN)NC(=O)[C@H](Cc1ccccc1)NC(=O)[C@H](CCCCNC(=O)[C@H](CC(C)C)NC(=O)[C@@H]1CCCN1C(=O)[C@H](CCCCN)NC(=O)C[C@@H]1O[C@@H](C)[C@@H](O)[C@@H](O)[C@@H]1O)NC(=O)[C@H](CC(C)C)NC(=O)[C@@H]1CCCN1C(=O)[C@H](CCCCN)NC(=O)C[C@@H]1O[C@@H](C)[C@@H](O)[C@@H](O)[C@@H]1O)C(N)=O — relative potency per fucoside (lecB (Pseudomonas aeruginosa, UniProt Q9HYN5); binding, isothermal titration calorimetry; divided by fucoside copies; reference: monovalent fucoside KD over ligand KD): 3.1
CCCCC/C=C\C/C=C\C/C=C\C/C=C\CCCC(=O)NC(CO)C(=O)O (stereo in doubt) — maximal conductance (KCNQ4 (Homo sapiens, UniProt P56696); potassium current, two-electrode voltage clamp; 10 µM): no effect
Nc1nc2c([C@@H]3O[C@@H]4COP(=O)(O)O[C@H]5[C@@H](O)[C@H](c6snc7c(=O)[nH]c(N)nc67)O[C@@H]5COP(=O)(O)O[C@H]4[C@H]3O)snc2c(=O)[nH]1 — time to complete cleavage (rocR; substrate, HPLC; 10 µM, together with: 100 nM enzyme): ≤ 20 min
C=C(C)C(=O)Oc1ccc(C(C)(C)c2ccc(OC(=O)C(=C)C)cc2)cc1 — maximal effect concentration (Androgen receptor (AR, Homo sapiens, UniProt P10275); reporter gene, antagonist; CHO; together with: 0.1 nM R1881): 20 µM
CC[C@H](C)[C@H](NC(=O)[C@H](CC(N)=O)NC(=O)[C@H](CC(N)=O)NC(=O)[C@@H](N)CCCNC(N)=O)C(=O)N1C[C@@H](n2cc([C]34[CH]5[CH]6[CH]7[CH]3[Fe]6754389%10[CH]4[CH]3[CH]8[CH]9[CH]4%10)nn2)C[C@H]1C(=O)N[C@@H](Cc1c[nH]c2ccccc12)C(=O)N[C@@H](CO)C(N)=O (stereo partly shown) — binding entropy term -TΔS (env (Human immunodeficiency virus type 1 group M subtype B, UniProt P35961); ITC; concentration not given, pH 7.4, 25 °C): 3.6 ± 1.6 kcal/mol
Cc1cc(O)cc(C)c1CC(N)C(=O)NC1CCNc2c(C(=O)O)cc(Cc3ccccc3)cc21 (stereo not shown) — Ke (Oprd1; GTPγS binding, antagonist; together with: SNC80): 15.7 nM
Cn1cc(-c2cccc(CN3CCC4(CC3)COc3c4ccc4c3CN([C@H]3CCC(=O)NC3=O)C4=O)c2)cn1 — degradation (Ikzf2/Crbn (Mus musculus, UniProt P81183+Q8C7D2, I391V); mouse Crbn I391V, spleen; oral, 100 mg/kg single dose, 6 h): 89%
CC(=O)NCC(=O)NCC(=O)N[C@@H](CCCCNP(=O)(O)O)C(=O)NCC(=O)NCC(N)=O — initial velocity (Phospholysine phosphohistidine inorganic pyrophosphate phosphatase (LHPP, Homo sapiens, UniProt Q9H008); substrate; 100 µM, pH 7.8): 1.97e-08 M/s
Nc1nc2c([C@@H]3O[C@@H]4COP(=O)(O)O[C@H]5[C@@H](O)[C@H](n6cnc7c(=O)[nH]c(N)nc76)O[C@@H]5COP(=O)(O)O[C@H]4[C@H]3O)snc2c(=O)[nH]1 — product P1 share (rocR; cyclic dinucleotide hydrolysis, substrate, HPLC): 58%
CC(C)P(=S)(NP(=S)(C(C)C)C(C)C)C(C)C — ΔS (Alpha-amylase (Bacillus subtilis, UniProt P00691); binding, Van't Hoff analysis; pH 6.8, 298–310 K): 0.136 kJ/mol/K
CC(=O)N[C@H]1C(O)O[C@H](CO)[C@@H](O[C@@H]2O[C@H](CO)[C@H](O)[C@H](O)[C@H]2O)[C@@H]1O (stereo partly shown) — –ΔH (Galectin-3 (LGALS3, Homo sapiens, UniProt P17931); binding, isothermal titration calorimetry): 13.7 kcal/mol
COc1cc(COc2ccc3c(c2)CN(C(=O)[C@H](CCC(=O)O)NC(=O)[C@H](CC(=O)O)NC(=O)[C@H](CC(=O)O)NC(=O)[C@H](CCC(=O)O)NC(=O)[C@@H](CCCNC(=N)N)NC(=O)[C@@H](CCCNC(=N)N)NC(=O)[C@@H](CCCNC(=N)N)NC(=O)[C@H](C)N(C)C(=O)[C@H](Cc2ccccc2)NC(=O)[C@@H](NC(=O)[C@H](Cc2ccccc2)NC(=O)[C@H](C)NC(=O)[C@H](CCCNC(=N)N)N(C)C(=O)[C@@H]2CCCN2C(=O)[C@H](CCCNC(=N)N)NC(=O)CNC(=O)c2ccc4c(c2)C2(OC4=O)c4ccc(O)cc4Oc4cc(O)ccc42)[C@@H](C)OCc2cc(OC)c(OC)cc2[N+](=O)[O-])[C@H](C(=O)N[C@@H](CCC(=O)O)C(=O)N[C@@H](CCC(=O)O)C(=O)N[C@H](C(N)=O)C(C)C)C3)c([N+](=O)[O-])cc1OC — phosphorylation (AKT1 (Homo sapiens, UniProt P31749); reporter phosphorylation, substrate; concentration not given, 60 min, after photoactivation): 87.1 ± 1.8%
NC(=O)Cc1cc(=O)oc2cc(NC(=O)[C@@H](N)CCc3ccc(O)cc3)ccc12 — Km (Aminopeptidase N; enzyme activity, substrate; pH 7.5, 37 °C): 47.4 ± 1.6 µM
CCNC(=O)c1cc(Cc2ccccc2)cc2c1NCCC2NC(=O)C(N)Cc1c(C)cc(O)cc1C (stereo not shown) — Ke (Oprd1; GTPγS binding, antagonist; together with: SNC80): 25.4 nM
CC(COC(=O)c1ccccc1)OC(=O)C(N)Cc1ccccc1 (mixture of isomers) — Km (BPHL (Homo sapiens, UniProt Q86WA6); enzyme activity, substrate): 2370 µM
N#Cc1nc(N2CCOCC2)nc(N(Cc2ccc(F)cc2)CC2CCCNC2)n1 (stereo not shown) — selectivity ratio (CPL; enzyme activity, inhibitor; reference: human over Toxoplasma IC50): 6.7 and 7
CC[C@H](C)[C@H](NC(=O)[C@H](CC(N)=O)NC(=O)[C@H](CCC(=O)O)NC(=O)[C@H](CCC(=O)O)NC(=O)[C@H](CCC(=O)O)NC(=O)[C@H](CC(N)=O)NC(=O)[C@H](CCCNC(=N)N)NC(=O)[C@@H]1CCCN1C(=O)[C@H](CCCCN)NC(=O)[C@@H](NC(=O)[C@@H](NC(=O)[C@H](C)NC(=O)[C@H](CC(=O)O)NC(=O)[C@H](CCSC)NC(=O)[C@@H]1CCCN1C(=O)[C@H](CCC(=O)O)NC(=O)[C@H](C)NC(=O)[C@H](Cc1ccc(OP(=O)(O)O)cc1)NC(=O)[C@H](CC(=O)O)NC(=O)[C@H](CO)NC(=O)[C@@H]1CCCN1C(=O)[C@H](CC(=O)O)NC(C)=O)C(C)C)C(C)C)C(=O)N[C@@H](Cc1ccc(OP(=O)(O)O)cc1)C(=O)N[C@@H](CO)C(=O)N[C@H](C(=O)N1CCC[C@H]1C(=O)N[C@@H](Cc1c[nH]cn1)C(=O)N[C@@H](CC(=O)O)C(=O)N[C@@H](CO)C(N)=O)C(C)C — binding stoichiometry (Ras GTPase-activating protein 1, SH2-SH3-SH2 region (RASA1, Homo sapiens, UniProt P20936, C236S/C261S/C372S/C402S); isothermal titration calorimetry; concentration not given, pH 8.0, together with: doubly phosphorylated p190RhoGAP peptide): 0.6 ± 0.1
NCCCC[C@H](N)C(=O)Nc1ccc2c(CC(N)=O)cc(=O)oc2c1 — relative hydrolysis rate (Aminopeptidase N; enzyme activity, substrate; 3 µM, pH 7.5, 37 °C; reference: L-hArg-ACC): < 20%
CC(=O)NC(Cc1ccc(Br)c(Cl)c1)C(=O)N[C@@H](C)C(=O)N1CCC[C@H]1C(=O)N1CCC[C@H]1C(=O)N[C@@H](CCC(=O)O)C(=O)N[C@@H](Cc1c[nH]cn1)C(=O)N[C@@H](CO)C(=O)N[C@H](C(=O)N[C@@H](C)C(N)=O)[C@@H](C)OP(=O)(O)O (stereo partly shown) — inhibition (SGK1 (Homo sapiens, UniProt O00141); enzyme activity, inhibitor; 10 µM): 0.19%
CC(C)(C)C[C@H](N)C(=O)Nc1ccc2c(CC(N)=O)cc(=O)oc2c1 — Km (Aminopeptidase N; enzyme activity, substrate; pH 7.5, 37 °C): 61 ± 1.6 µM
O=C(O)CCCC(=O)O — inhibition (BCHE; enzyme activity, inhibitor, Ellman; 500 µg/mL): 69.1%
CC(C)(C)n1ccc(C(=O)N2CCN(c3nc4ccccc4s3)CC2)c1 — kmax (hh, C-terminal autoprocessing domain (Drosophila melanogaster, UniProt Q02936); inhibitor; 25 µM): 0.00029 s⁻¹
CCOC(=O)/C(C#N)=C/c1cccc(C(N)=O)c1 — binding free energy (Genome polyprotein, 3C protease (Human enterovirus D68, UniProt Q68T42, C1641Y/I1565V/I1594T/R1603K/Y1579H); ITC; enterovirus D68; 25 °C, together with: DTT 10 mM): -6.81 kcal/mol
CCN(Cc1ccccc1)C(=O)CCc1nc(CN2CCN(C(=O)Cc3ccc(OC)c(OC)c3)CC2)no1 — V1/2 of inactivation (SCN9A (Homo sapiens, UniProt Q15858); whole-cell patch clamp; HEK stable; 100 nM): -75 ± 8.05 mV
CC(C)(CO)NCc1ccc(-c2cc(Cl)cc(Cl)c2)o1 — ligand efficiency (DRD3 (Homo sapiens, UniProt P35462); radioligand competition binding): 0.49
CC(=O)N[C@H](CCCNC(=N)N)C(=O)N[C@H]1CSSC[C@@H](C(N)=O)NC(=O)[C@H](Cc2c[nH]c3ccccc23)NC(=O)[C@H](CCCNC(=N)N)NC(=O)[C@@H](Cc2ccccc2)NC(=O)[C@H](Cc2c[nH]cn2)NC(=O)[C@H](CCC(=O)O)NC1=O — plasma PYY level (Melanocortin receptor 4 (Mus musculus, UniProt P56450); agonist; mice; intraperitoneal, 3 mg/kg; reference: saline): 3 fold
CC(C)C[C@@H](NC(=O)[C@@H](CCCCN)NC(=O)[C@@H](CCCCN)NC(=O)CNC(=O)[C@@H](CCCNC(=N)N)NC(=O)[C@H](N)CCCNC(=N)N)C(=O)N[C@H](CC(C)C)C(=O)N[C@H](CC(C)C)C(=O)N[C@H](CC(C)C)C(=O)N[C@H](CC(C)C)C(=O)N[C@H](CCCCN)C(=O)N[C@H](CCCCN)C(=O)N[C@H](CCCCN)C(=O)NCC(=O)O — fraction client-bound (dnaK, ADP-bound (Escherichia coli, UniProt P0A6Y8); native gel shift; 50 µM, ADP-bound DnaK): 0 ± 0.05
CC(C)C[C@@H]1NC(=O)[C@H](CCCNC(=N)N)NC(=O)[C@H](CCCCN)NC(=O)[C@H](CC(=O)O)NC(=O)[C@H](CCCCN)NC(=O)[C@@H](CO)NC1=O — enzyme activity (Disintegrin and metalloproteinase domain-containing protein 8 (Homo sapiens, UniProt P78325); PANC-1 ADAM8-expressing; 1 µM, 24 h; reference: vehicle): decreased

Some of these lines once more:
CC[C@H](C)[C@H](NC(=O)[C@H](CC(N)=O)NC(=O)[C@H](CC(N)=O)NC(=O)[C@@H](N)CCCNC(N)=O)C(=O)N1C[C@@H](n2cc([C]34[CH]5[CH]6[CH]7[CH]3[Fe]6754389%10[CH]4[CH]3[CH]8[CH]9[CH]4%10)nn2)C[C@H]1C(=O)N[C@@H](Cc1c[nH]c2ccccc12)C(=O)N[C@@H](CO)C(N)=O (stereo partly shown) — binding entropy term -TΔS (env (Human immunodeficiency virus type 1 group M subtype B, UniProt P35961); ITC; concentration not given, pH 7.4, 25 °C): 3.6 ± 1.6 kcal/mol
CC(=O)NC(Cc1ccc(Br)c(Cl)c1)C(=O)N[C@@H](C)C(=O)N1CCC[C@H]1C(=O)N1CCC[C@H]1C(=O)N[C@@H](CCC(=O)O)C(=O)N[C@@H](Cc1c[nH]cn1)C(=O)N[C@@H](CO)C(=O)N[C@H](C(=O)N[C@@H](C)C(N)=O)[C@@H](C)OP(=O)(O)O (stereo partly shown) — inhibition (SGK1 (Homo sapiens, UniProt O00141); enzyme activity, inhibitor; 10 µM): 0.19%
